# Measurements collected from several papers.
# Compare with care: the assays were run in different laboratories.
# UniProt P08069, sequence (whole entry, looked up): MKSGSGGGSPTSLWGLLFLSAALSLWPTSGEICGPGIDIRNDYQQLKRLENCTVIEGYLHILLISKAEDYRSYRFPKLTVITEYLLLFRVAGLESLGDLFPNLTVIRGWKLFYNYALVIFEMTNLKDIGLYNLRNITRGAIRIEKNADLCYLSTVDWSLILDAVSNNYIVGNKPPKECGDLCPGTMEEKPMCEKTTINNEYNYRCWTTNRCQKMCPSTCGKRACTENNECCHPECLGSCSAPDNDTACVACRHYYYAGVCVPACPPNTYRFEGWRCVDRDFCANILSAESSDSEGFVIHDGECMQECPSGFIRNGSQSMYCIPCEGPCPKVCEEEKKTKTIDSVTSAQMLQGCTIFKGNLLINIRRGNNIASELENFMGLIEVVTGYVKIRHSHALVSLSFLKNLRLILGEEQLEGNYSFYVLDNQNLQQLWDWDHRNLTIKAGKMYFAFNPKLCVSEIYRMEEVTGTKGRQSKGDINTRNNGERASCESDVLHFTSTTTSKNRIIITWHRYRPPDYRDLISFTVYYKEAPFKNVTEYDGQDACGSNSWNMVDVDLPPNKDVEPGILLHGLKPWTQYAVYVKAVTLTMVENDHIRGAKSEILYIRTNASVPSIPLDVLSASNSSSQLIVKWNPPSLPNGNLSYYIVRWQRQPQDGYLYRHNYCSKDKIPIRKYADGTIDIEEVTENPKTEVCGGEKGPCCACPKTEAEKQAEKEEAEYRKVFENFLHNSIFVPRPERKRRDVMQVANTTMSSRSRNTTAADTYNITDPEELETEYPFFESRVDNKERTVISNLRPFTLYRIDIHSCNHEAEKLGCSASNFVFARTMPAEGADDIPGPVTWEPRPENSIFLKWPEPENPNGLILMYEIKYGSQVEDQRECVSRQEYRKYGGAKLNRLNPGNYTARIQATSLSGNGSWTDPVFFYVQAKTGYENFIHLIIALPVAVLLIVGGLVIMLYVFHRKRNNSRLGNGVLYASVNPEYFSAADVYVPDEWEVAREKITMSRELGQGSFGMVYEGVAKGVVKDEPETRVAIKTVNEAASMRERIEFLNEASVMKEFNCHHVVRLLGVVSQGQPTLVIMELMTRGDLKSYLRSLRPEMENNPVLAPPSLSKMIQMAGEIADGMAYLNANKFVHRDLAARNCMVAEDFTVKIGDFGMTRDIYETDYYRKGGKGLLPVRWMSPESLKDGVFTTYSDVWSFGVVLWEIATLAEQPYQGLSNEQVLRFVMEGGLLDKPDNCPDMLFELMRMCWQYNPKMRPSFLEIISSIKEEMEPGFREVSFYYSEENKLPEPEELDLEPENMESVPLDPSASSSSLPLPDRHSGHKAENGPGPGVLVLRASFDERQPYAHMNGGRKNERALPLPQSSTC
SMILES,target or system,test,test system,setting,how to read,measurement,result
CC[C@H](C)[C@H](NC(=O)CN)C(=O)NCC(=O)N[C@@H](C)C(=O)N[C@H](C(=O)N[C@@H](CC(C)C)C(=O)N[C@@H](CCCCN)C(=O)N[C@H](C(=O)N[C@@H](CC(C)C)C(=O)N[C@H](C(=O)N[C@H](C(=O)NCC(=O)N[C@@H](CC(C)C)C(=O)N1CCC[C@H]1C(=O)N[C@@H](C)C(=O)N[C@@H](CC(C)C)C(=O)N[C@H](C(=O)N[C@@H](CO)C(=O)N[C@@H](Cc1c[nH]c2ccccc12)C(=O)N[C@H](C(=O)N[C@@H](CCCCN)C(=O)N[C@@H](CCCNC(=N)N)C(=O)N[C@@H](CCCCN)C(=O)N[C@@H](CCCNC(=N)N)C(=O)N[C@@H](CCC(N)=O)C(=O)N[C@@H](CCC(N)=O)C(N)=O)[C@@H](C)CC)[C@@H](C)CC)[C@@H](C)O)[C@@H](C)O)C(C)C)C(C)C,Candida tropicalis,broth microdilution,"CGMCC 2.197, RPMI-1640","48 h, 30 °C",,MIC,2 µM
OC(Cn1cncn1)(Cn1cncn1)c1ccc(F)cc1F,Candida tropicalis,broth microdilution,"CGMCC 2.192, RPMI 1640-MOPS","48 h, 30 °C",,MIC,4 µM
CC1(C)SC2C(NC(=O)C(NC(=O)C3=C(O)C(Cc4ccc(O)cc4)NC3=O)c3ccccc3)C(=O)N2C1C(=O)O (stereo not shown),Escherichia coli,broth microdilution,JW0790-2 fiu deletion mutant,ferric iron uptake gene,,MIC,25 µg/mL
N=C(N)NCCC[C@H](NC(=O)CCCCCNC(=O)[C@H](CCCNC(=N)N)NC(=O)[C@H](CCCNC(=N)N)NC(=O)CCCCCNC(=O)[C@H](CCCNC(=N)N)NC(=O)[C@H](CCCNC(=N)N)NC(=O)CCCCCNC(=O)[C@H](CCCNC(=N)N)NC(=O)[C@H](CCCNC(=N)N)NC(=O)CCCCCNC(=O)[C@@H](N)CCCNC(=N)N)C(=O)NCCCCCC(=O)NCCC(=O)O,Escherichia coli,,ATCC 25922,"1 h, 37 °C, serum, fetal bovine, after 12.5%",,MIC,96 µM
CC1(C)SC2C(NC(=O)C(NC(=O)C3=C(O)C(Cc4ccco4)NC3=O)c3ccccc3)C(=O)N2C1C(=O)O (stereo not shown),Escherichia coli,broth microdilution,Keio mutant JW0587-1,"18 h, enterobactin-related gene",,MIC,12.5 µg/mL
C[C@H]1CN(c2n[nH]c3nc(N[C@H]4CC[C@H](NS(=O)(=O)CCC(F)(F)F)CC4)ncc23)CCO1,"Insulin-like growth factor 1 receptor (IGF1R, Homo sapiens, UniProt P08069)","inhibitor, Kinobeads competition profiling",,0.16 µM,relative to: vehicle,relative abundance,1.06
N=C(N)c1ccc(OCc2ccc(-c3ccccc3)cc2COc2ccc(C(=N)N)cc2)cc1,Escherichia coli,,BW25113 mcr-1,compound alone,,MIC,> 100 µg/mL
CC[C@H](C)[C@H](NC(=O)CN)C(=O)NCC(=O)N[C@@H](C)C(=O)N[C@H](C(=O)N[C@@H](CC(C)C)C(=O)N[C@@H](CCCCN)C(=O)N[C@H](C(=O)N[C@@H](CC(C)C)C(=O)N[C@H](C(=O)N[C@H](C(=O)NCC(=O)N[C@@H](CC(C)C)C(=O)N1CCC[C@H]1C(=O)N[C@@H](C)C(=O)N[C@@H](CC(C)C)C(=O)N[C@H](C(=O)N[C@@H](CO)C(=O)N[C@@H](Cc1c[nH]c2ccccc12)C(=O)N[C@H](C(=O)N[C@@H](CCCCN)C(=O)N[C@@H](CCCNC(=N)N)C(=O)N[C@@H](CCCCN)C(=O)N[C@@H](CCCNC(=N)N)C(=O)N[C@@H](CCC(N)=O)C(=O)N[C@@H](CCC(N)=O)C(N)=O)[C@@H](C)CC)[C@@H](C)CC)[C@@H](C)O)[C@@H](C)O)C(C)C)C(C)C,Candida tropicalis,broth microdilution,"CGMCC 2.192, RPMI 1640-MOPS","48 h, 30 °C",,MIC,4 µM
O=C(O)CNC(=O)CO/N=c1\cc2n(-c3ccc(Cl)cc3)c3ccccc3nc-2cc1Nc1ccc(Cl)cc1,Neisseria gonorrhoeae,bacterial growth,"700825, streptomycin-resistant",24 h,,MIC,7.5 µM
CC1(C)SC2C(NC(=O)C(NC(=O)C3=C(O)C(Cc4ccsc4)NC3=O)c3ccccc3)C(=O)N2C1C(=O)O (stereo not shown),Escherichia coli,broth microdilution,"isolate IU, CTX-M-14, TEM-1",no clavulanic acid,,MIC,> 200 µg/mL
C[C@H](NC(=O)[C@H](CCCNC(=N)N)NC(=O)[C@H](Cc1c[nH]c2ccccc12)NC(=O)[C@H](CCCNC(=N)N)NC(=O)[C@H](Cc1c[nH]c2ccccc12)NC(=O)[C@H](Cc1c[nH]c2ccccc12)NC(=O)[C@H](Cc1c[nH]c2ccccc12)NC(=O)[C@H](CCCNC(=N)N)NC(=O)[C@H](Cc1c[nH]c2ccccc12)NC(=O)[C@@H](N)CCCNC(=N)N)C(N)=O,Candida albicans,broth microdilution,"CGMCC 2.209, RPMI 1640-MOPS","48 h, 30 °C, with: KCl 4.5 mM",,MIC,4 µM
CC(C)C[C@@H](NC(=O)[C@H](C)NC(=O)CNC(=O)[C@@H](NC=O)C(C)C)C(=O)N[C@@H](C)C(=O)N[C@@H](C(=O)N[C@H](C(=O)N[C@@H](C(=O)N[C@@H](Cc1c[nH]c2ccccc12)C(=O)N[C@H](CC(C)C)C(=O)N[C@@H](Cc1ccc2[nH]ccc2c1)C(=O)N[C@H](CC(C)C)C(=O)N[C@@H](Cc1c[nH]c2ccccc12)C(=O)N[C@@H](C(=O)N[C@@H](Cc1c[nH]c2ccccc12)C(=O)NCCO)C(C)C)[C@H](C)O)C(C)C)C(C)C,Streptococcus agalactiae,broth microdilution,JCM 5671,,,MIC,4.3 µM
CC(C)/N=c1\cc2n(-c3ccc(Cl)cc3)c3ccccc3nc-2cc1Nc1ccc(Cl)cc1,Neisseria gonorrhoeae,bacterial growth,"700825, streptomycin-resistant",24 h,,MIC,0.94 µM
CC[C@H](C)[C@H](NC(=O)[C@H](CCCNC(=N)N)NC(=O)[C@H](Cc1c[nH]c2ccccc12)NC(=O)[C@H](CCCNC(=N)N)NC(=O)[C@H](Cc1c[nH]c2ccccc12)NC(=O)[C@H](Cc1c[nH]c2ccccc12)NC(=O)[C@H](Cc1c[nH]c2ccccc12)NC(=O)[C@H](CCCNC(=N)N)NC(=O)[C@H](Cc1c[nH]c2ccccc12)NC(=O)[C@@H](N)CCCNC(=N)N)C(N)=O,Candida albicans,broth microdilution,"CGMCC 2.209, RPMI 1640-MOPS","48 h, 30 °C, with: KCl 4.5 mM",,MIC,16 µM
CO/N=c1\cc2n(-c3ccc(Cl)cc3)c3ccccc3nc-2cc1Nc1ccc(Cl)cc1,Neisseria gonorrhoeae,bacterial growth,"1130991, multidrug-resistant",24 h,,MIC,0.94 µM
CC(C)C[C@H](NC(=O)[C@H](CCCNC(=N)N)NC(=O)[C@H](Cc1c[nH]c2ccccc12)NC(=O)[C@H](CCCNC(=N)N)NC(=O)[C@H](Cc1c[nH]c2ccccc12)NC(=O)[C@H](Cc1c[nH]c2ccccc12)NC(=O)[C@H](Cc1c[nH]c2ccccc12)NC(=O)[C@H](CCCNC(=N)N)NC(=O)[C@H](Cc1c[nH]c2ccccc12)NC(=O)[C@H](CCCNC(=N)N)NC(=O)CN)C(N)=O,Candida tropicalis,broth microdilution,"CGMCC 2.192, RPMI 1640-MOPS","48 h, 30 °C",,MIC,4 µM
CC[C@H](C)[C@H](NC(=O)[C@H](CC(N)=O)NC(=O)[C@H](Cc1ccccc1)NC(=O)[C@H](CCCNC(=N)N)NC(=O)[C@H](CCCNC(=N)N)NC(=O)[C@@H](N)CCCCN)C(=O)N[C@@H](CCCCN)C(=O)N[C@@H](CC(C)C)C(=O)N[C@@H](Cc1c[nH]c2ccccc12)C(=O)N[C@@H](CCCCN)C(=O)N[C@H](C(=O)N[C@@H](Cc1ccccc1)C(=O)O)[C@@H](C)O,Micrococcus luteus,,NCTC 2665,,,MIC,25 µg/mL
CC(C)CC1NC(=O)C(C(=O)NC(C(=O)NC2C(=O)N3C2SC(C)(C)C3C(=O)O)c2ccccc2)=C1O (stereo not shown),Escherichia coli,broth microdilution,Keio mutant JW2142-1,,,MIC,50 µg/mL
CN[C@H](CC(C)C)C(=O)N[C@H]1C(=O)N[C@@H](CC(N)=O)C(=O)N[C@H]2C(=O)N[C@H]3C(=O)N[C@H](C(=O)N[C@H](C(=O)O)c4cc(O)cc(O)c4-c4cc3ccc4O)[C@H](O)c3ccc(c(Cl)c3)Oc3cc2cc(c3O[C@@H]2O[C@H](CO)[C@@H](O)[C@H](O)[C@H]2O[C@H]2C[C@](C)(N)[C@H](O)[C@H](C)O2)Oc2ccc(cc2Cl)[C@H]1O,Streptococcus pyogenes,,"erythromycin-resistant, 19 strains",,,MIC,0.27 µg/mL
